Values quoted from earlier work, collected from citations in different studies.
Compare with care: the assays were run in different laboratories.

O=P(O)(O)C(Cl)(Cl)P(=O)(O)O has a Cmax of 2770 nM (plasma; concentration not given).
O=C1c2cccc3c2[C@H](CCC3)CN1[C@@H]1CN2CCC1CC2 gave a Cmax of 0.909 ng/mL (healthy volunteers, plasma; oral, dose not given, netupitant-palonosetron combination, together with: oral contraceptives).
The Cmax of C[C@@H]1C[C@H]2[C@@H]3CCC4=CC(=O)C=C[C@]4(C)[C@@]3(F)[C@@H](O)C[C@]2(C)[C@@]1(O)C(=O)CO is reported as 230 nM (plasma; concentration not given).
With Cn1c(=O)n(-c2ccc(C(C)(C)C#N)cc2)c2c3cc(-c4cnc5ccccc5c4)ccc3ncc21 the Cmax was ~1680 nM (nude mouse, PC-3M xenograft, plasma; 50 mg/kg, 0.5 h).
Cc1cn([C@H]2C[C@H](N=[N+]=[N-])[C@@H](CO)O2)c(=O)[nH]c1=O has a Cmax of 4000 nM (plasma; concentration not given).
With Cc1nc2cccc(OCC(C)(C)C(=O)NC(C)C)c2c(N)c1C(=O)O the Cmax was 428 nM (rat; oral, 100 mg/kg/day, day 7).
COc1cccc2c1c(O)c(C(=O)N(C)c1ccc(C(F)(F)F)cc1)c(=O)n2C has a Cmax of > 10000 nM (mouse, prostate cancer xenograft, plasma; concentration not given, required for optimal efficacy).
CS(=O)(=O)CCNCc1ccc(-c2ccc3ncnc(Nc4ccc(OCc5cccc(F)c5)c(Cl)c4)c3c2)o1 has a Cmax of 2300 nM (patients, plasma; dose not given, total concentration).
NC(=O)N1c2ccccc2C=Cc2ccccc21 gave a Cmax of 6430 nM (plasma; concentration not given).
CCCCC[C@H](O)/C=C/[C@@H]1[C@H]2C/C(=C/CCCC(=O)O)O[C@H]2C[C@H]1O has a Cmax of 0.99 nM (human, plasma; concentration not given, total concentration).
With Clc1ccc(CCCOCCCN2CCCCC2)cc1 the Cmax was 1500 nM (Swiss mouse, male, plasma; oral, 10 mg/kg).
COc1cc2c(Nc3ccc(Br)cc3F)ncnc2cc1OCC1CCN(C)CC1 gave a Cmax of 4260 nM (patients, plasma; dose not given, total concentration).
For Cn1ncnc1[C@H]1c2n[nH]c(=O)c3cc(F)cc(c23)N[C@@H]1c1ccc(F)cc1, the Cmax was ~200 nM (mouse; oral, dose not given).

A few entries again:
NC(=O)N1c2ccccc2C=Cc2ccccc21 gave a Cmax of 6430 nM (plasma; concentration not given).
